# Measurements pooled from the literature.
# Numbered parts are unrelated; each lists some results of a single study.

# Sample 1
# Target: RNA binding protein fox-1 homolog 2, RRM domain, GST-SBP tag (RBFOX2, Homo sapiens, UniProt O43251-10, residues 100-194)
# Technique: RNA Bind-n-Seq
# Molecule type: RNA
# Matrix: in vitro
# Concentration: 365 nM
# Notes: natural RNA segment, single round, ends assumed
# Relative to: no-protein control
# Direction: higher = stronger binding
# All sequences stand within: GGGAGUUCUACAGUCCGACGAUC … UGGAAUUCUCGGGUGCCAA
# Target sequence (chain): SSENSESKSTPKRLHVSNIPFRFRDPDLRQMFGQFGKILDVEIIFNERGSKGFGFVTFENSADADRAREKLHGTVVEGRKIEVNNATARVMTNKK
Oligonucleotide,RBNS enrichment (R)
CUUCUGCUCUUGGCCCCUCUGGCCAGGGCCCCUGUGGCUUCCUGCACACUGGACAGGUGACUGUAUGGUAGAGACUGUGAUCUGGGAACUUUUUGCUGUACAAAUCUGUU,0.506
CUGUCUAUCCUAAAAGUAGAUUAGAAAGCCUUUUUUAUUUAUCAUGUUGAAUUUUAUUGACUUAAUUGGUCUGUAGAUAUGAAAGCAUCUUCUAAGGAGUUUUAGAUUUA,0.583
CUGCUGUCUCUGUAUGUCCAGUCGGUGGAACACUGUAAUGACUUGAGAAUAAACUGCCCAGAGUUCAUUUUCACUCACGUCCCCUUUUAUUUGGUUCAGUGUUCAUGUGA,0.507
CAAGAGCUGUCACAGACAAGUGGCAGAAUACAGGCACCAUGAGCUCAGGUUCUGACAAGGUGCAAAGCGUGGGGAGGCUCUGAGGAAUAUGAAGAGUGGGAAGGCGGCCU,0.364
UGCGCCAUUGCUGCACGCGGGUGGCCCUCUGCCAGGCCGUGGACUGGCUCAUGCCUCAGCCCGCCUUCAGGCUGCCCGCCGCCCCUCCACCCAUCCAGUGGACUCUGGGG,1.13
AAGCCCAUUCCGGGAUGGGUGGCGAGCACAGGGUGCAUAAGCAAGCUGUUCUUCCCAGUCGGUAGGGGAGUGACCCUCUAGGACAGGAAGCUGGGCUGGCCCAGGCCAGU,0.289
GUGGUGCAGUGUCUCUCUUUGUAGGGACUACAAGAAAUAACUUUGAAGGCAAGAAAGUCAUUAGCUUAGAAUAUGAAGCGUAUGUACCGAUGGCAGAAAAUGAAAUCAGA,0.541
GGGAGCUGUUCCGACCCCCGCUCCUGUGUAAGCAUUCAAUCAGUGUAACUUGCAAAAUGCAUAAACAUCCGACAGUUUGAAUUAAUAGUGUUGAUGGAAGAAAUCAUUUU,0.765

# Sample 2
# Target: Prothrombin, mature alpha-thrombin (F2, Homo sapiens, UniProt P00734)
# Technique: aptamer microarray, sandwich
# Molecule type: DNA with 2'F-ANA
# Matrix: in vitro
# Concentration: 200 nM
# Notes: whole 15-mer aptamer, many near background
# Added: Cy3 exosite-II aptamer, 400 nM
# Direction: higher = stronger binding
# Oligonucleotide: GGTTGGTGTGGTTGG
Modification,mean fluorescence intensity
2'F-ANA at 3 5 8 10 11 12 13 14 15,51.2 a.u.
2'F-ANA at 1 2 4 7 9 10 11 14 15,48.9 a.u.
2'F-ANA at 1 6 14,51.1 a.u.
2'F-ANA at 2 3 5 6 8 13 15,102 a.u.
2'F-ANA at 1 2 3 4 5 7 9 10 12 13 15,49 a.u.
2'F-ANA at 2 3 8 11 12 13,855 a.u.
2'F-ANA at 1 3 4 6 8 10 12 15,74.7 a.u.
2'F-ANA at 6 9 10 14 15,108 a.u.
2'F-ANA at 1 2 4 5 11,47.6 a.u.
2'F-ANA at 3 7 9 12 13 14,653 a.u.
2'F-ANA at 1 2 4 6 7 8 9 10 11 12,58.3 a.u.
2'F-ANA at 2 3 6 7 9 13 15,464 a.u.
2'F-ANA at 1 4 6 7 14,49.5 a.u.
2'F-ANA at 1 2 5 6 7 8 9 10 11 12 14,51.2 a.u.
2'F-ANA at 1 2 4 5 6 9,56.4 a.u.
2'F-ANA at 1 4 6 8 10 15,69 a.u.
2'F-ANA at 1 6 7 10 12 14,44.8 a.u.
2'F-ANA at 2 3 5 6 7 8 11 12 13,150 a.u.
2'F-ANA at 1 6 10 11,50.6 a.u.
2'F-ANA at 7 8 10 11 13 15,162 a.u.
2'F-ANA at 1 5 8 12 14 15,50.5 a.u.
2'F-ANA at 1 2 3 5 9 11 14 15,48.6 a.u.
2'F-ANA at 1 4 5 7 8 9 10 11 12 14,48.9 a.u.
2'F-ANA at 3 4 6 7 9 11 12 13 14 15,222 a.u.
2'F-ANA at 1 4 6 8 9 10 12 13,51.9 a.u.

# Sample 3
# Target: Transcriptional repressor CTCF (CTCF, Homo sapiens, UniProt P49711, residues 1-727, full length assumed)
# Sequence of UniProt P49711 (whole entry, looked up): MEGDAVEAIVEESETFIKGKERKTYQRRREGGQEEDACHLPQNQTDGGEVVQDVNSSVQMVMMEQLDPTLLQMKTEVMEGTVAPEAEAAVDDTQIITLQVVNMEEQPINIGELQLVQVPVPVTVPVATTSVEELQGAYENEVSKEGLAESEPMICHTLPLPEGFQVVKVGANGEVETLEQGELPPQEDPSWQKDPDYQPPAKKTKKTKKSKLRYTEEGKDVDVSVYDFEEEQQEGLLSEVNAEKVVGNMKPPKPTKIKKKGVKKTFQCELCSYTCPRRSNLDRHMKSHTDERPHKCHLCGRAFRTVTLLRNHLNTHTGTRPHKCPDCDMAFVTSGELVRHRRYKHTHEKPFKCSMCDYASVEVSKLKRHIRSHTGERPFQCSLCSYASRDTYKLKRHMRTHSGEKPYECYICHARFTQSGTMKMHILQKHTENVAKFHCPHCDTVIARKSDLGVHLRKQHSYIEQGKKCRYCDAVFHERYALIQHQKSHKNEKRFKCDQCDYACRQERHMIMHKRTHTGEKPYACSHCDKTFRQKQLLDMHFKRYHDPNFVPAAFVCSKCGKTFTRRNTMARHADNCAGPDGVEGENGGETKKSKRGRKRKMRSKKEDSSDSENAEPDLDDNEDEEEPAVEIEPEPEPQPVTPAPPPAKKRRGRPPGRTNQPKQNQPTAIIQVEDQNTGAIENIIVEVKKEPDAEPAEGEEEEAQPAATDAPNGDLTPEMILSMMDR
# Technique: protein-binding microarray
# Molecule type: double-stranded DNA, one strand shown
# Matrix: in vitro
# Concentration: not given
# Notes: k-mer, scored over probes, only values ≥0.25
# Direction: higher = stronger binding
Oligonucleotide,E-score
ATGAAATA,0.284
TGCGCGCA,0.385
CCGCTAGG,0.463
GAGCGCCA,0.28
ATTTTGTA,0.353
ACGAAGAA,0.258
ATACGCGC,0.371
TAAAAATA,0.328
ATATCCCC,0.282
TATATTAA,0.326
ACCAATAT,0.289
AATAATTA,0.331
GTTACTCA,0.293
AAGCTGAT,0.335
CCTTATTA,0.292
AAAACTAC,0.264
AAATAAAT,0.333
AGTTATTA,0.275
ATTTGTTC,0.332
AAAATATT,0.313
ACTTAATA,0.288
CGCCACCA,0.317
AAATGCGC,0.406
TAGTATGA,0.294
ATTATCAG,0.254

# Sample 4
# Target: RING finger protein unkempt homolog, zinc fingers 1-6, GST-SBP tag (UNK, Homo sapiens, UniProt Q9C0B0, residues 30-357)
# Technique: RNA Bind-n-Seq
# Molecule type: RNA
# Matrix: in vitro
# Concentration: not given
# Notes: RNA with constant flanks, human-mouse chimeric sites, ends assumed
# Relative to: input RNA pool
# Direction: higher = stronger binding
# All sequences stand within: GGGAGUUCUACAGUCCGACGAUC … CAACAGAGGAUUGAGCAUCA
# Target sequence (chain): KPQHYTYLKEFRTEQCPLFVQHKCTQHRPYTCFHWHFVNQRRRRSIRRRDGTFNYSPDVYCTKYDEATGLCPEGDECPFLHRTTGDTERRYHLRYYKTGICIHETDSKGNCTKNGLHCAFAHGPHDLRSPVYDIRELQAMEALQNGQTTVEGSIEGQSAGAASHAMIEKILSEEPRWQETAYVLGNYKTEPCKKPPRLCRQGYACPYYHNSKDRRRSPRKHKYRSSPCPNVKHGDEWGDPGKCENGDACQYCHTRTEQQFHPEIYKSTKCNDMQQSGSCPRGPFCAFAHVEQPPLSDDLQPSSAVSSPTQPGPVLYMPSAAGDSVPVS
Oligonucleotide,bound/input enrichment [ratio]
UUGAAAACAAACUGAUUUAAGUUUGAGUAUCACAAUGUUAGCUUUCUAAUUCCAUAAAAGUACUUGGUUUUUACAGUAACCCCACAUACAUCACCCCAGCGCCAUUUGUAAAGAGCAACU,0.902
ACUCUUGACUCUUUCCAUCCUCUUCCUUUUCCUCUUGAUAUUCAAGGCCAUGAAUCCCAAAAUAACAAUCUAUCUUACUAGCACCCAAACAGAGGUGGAAUAAAUCCACCCCAGUGUCUC,0.998
GUUGCCAGCUUCCGGUUCCGUUGGGCUCGGUUCUCUCCUGAGCUACGUGUCUCUACGUUUUAGGUGUCGGUUGGGUAAAACAUGGAUCAGGUAAUGCAGUUUGUGGAGCCCAGCCGGCAG,0.0893
UCUUAACGUCCAUUUAAAACUUAUUUUUAUAGCUAGAUAAAUAUUGUUAGUCUUAGACAAUAGCUCACAUCUUUACAGAAGCAUGCCCUCCCUGUCCAUUUGUCUUAUAACAUGACCCAG,38.2
UUCUAGUAUGAUGGUGAUAUUGGAAAUUAUUAUUAUGGCCAGGGUCAUCCCAUGAAGCCUCAUAGAAUCCGGAUGACUCAUAACUUGCUGCUAAAUUAUGGUUUAUACCGAAAAAUGGAA,0.239
CUGUGUGUGCUGAAUAAAUGGCUUGUAAAGAAGUUUUCCAAGUUGUAAACCCAUGCUGUUAUUAUAGUUGCUGCAAAAUGUCUCUUAUGAUAUUGAUUUUAUUUGUUAACUGAAGGUCUC,0.418
AGGAGGAGAUUAAAGGGUGAAAAUGGGGUGGAAGACUGUGUCAUGGCUCUGGAGACACUGUUCAGUGUCCUGCUUUCUCUGUGCAGACUGAUGGCCCCUUACACGCCCUUUCUGACUGAG,0.0453
AACAUUUUGUCAAAUUGUUAUGUUCCUGUGAAACAAGUGAACACUCUGAUACACUUCAUCUGCUUGUACAUCUGUAUGAUAGAGAAAUGUAAAUAUGUUAAUCCAAGAUGAAUUCAACUU,0.189
